Published values pooled from the literature.
Lines come from different studies, so protocols differ. Numbers after ± are the reported error.

OCc1cn(Cc2ccc(-c3noc(-c4ccc(OCC[18F])c(C(F)(F)F)c4)n3)cc2)nn1  tissue uptake (female Lewis rat, spleen; intravenous, 60 min): 1.27 ± 0.08 %ID/g
C[C@H](CN(C)Cc1ccccc1)NC(=O)c1ccc(-c2noc(C(F)(F)[18F])n2)cc1  tissue uptake (PET imaging; female Sprague-Dawley rats, heart; intravenous, 60 min): 0.48 ± 0.18 SUV
O=C([O-])CN1CCN(CC(=O)[O-])CCN(CC(=O)NCCc2ccc3c(c2)C2C=CCC2C(c2cc4c(cc2Br)OCO4)N3)CCN(CC(=O)[O-])CC1.[111In+3] (centres unmarked)  tissue uptake (mouse, Hec50 endometrial tumour, liver; 4 h post injection): 3.04 ± 0.73 %ID/g
CCCC[C@H](NC(=O)CNC(=O)CNC(=O)CN1CCN(CC(=O)O)CCN(CC(=O)O)CCN(CC(=O)O)CC1)C(=O)N[C@H]1CC(=O)NCCCC[C@@H](C(N)=O)NC(=O)[C@H](Cc2c[nH]c3ccccc23)NC(=O)[C@H](CCCNC(=N)N)NC(=O)[C@@H](Cc2ccccc2)NC(=O)[C@H](Cc2c[nH]cn2)NC1=O [lead-203 labelled]  tissue uptake (C57 mouse, stomach; intravenous, 0.056 MBq, 4 h): 0.53 ± 0.2 %ID/g
CN1C(=O)[C@@H](Cc2ccc(O)c(I)c2)NC(=O)CNC(=O)[C@H](Cc2ccc3ccccc3c2)NC(=O)[C@H](CCCNC(=N)N)NC(=O)[C@H]1CCCNC(=O)c1ccc(CNC(=O)CN2CCN(CC(=O)O)CCN(CC(=O)O)CCN(CC(=O)O)CC2)cc1 [lutetium-177 labelled]  tissue uptake (item: 177Lu radioactivity; female CB-17 SCID mice, Daudi xenograft, heart; intravenous, 0.16 nmol per mouse, 1 h): 0.9 ± 0.3 %ID/g
CCCC[C@@H]1NC(=O)[C@@H](NC(=O)[C@H](CCC(=O)O)NC(=O)CNC(=O)CN2CCN(CC(=O)O)CCN(CC(=O)O)CCN(CC(=O)O)CC2)CCCCNC(=O)C[C@@H](C(N)=O)NC(=O)[C@H](C(C)C)NC(=O)[C@@H]2CCCN2C(=O)[C@H](CCCNC(=N)N)NC(=O)CNC(=O)[C@H](Cc2c[nH]c3ccccc23)NC(=O)[C@H](CCCNC(=N)N)NC(=O)[C@@H](Cc2ccccc2)NC(=O)[C@H](Cc2c[nH]cn2)NC(=O)[C@H](CCC(=O)O)NC1=O [gallium-67 labelled]  tissue uptake (C57 mice, B16/F10 lung metastases, pancreas; intravenous, 0.037 MBq/mouse, 2 h): 0.16 ± 0.09 %ID/g
O=C([O-])CN1CCN(CC(=O)[O-])CCN(CC(=O)[O-])CCN(CC(=O)[O-])CC1.[64Cu+2]  tissue uptake (nude athymic mice, healthy, femur; intravenous, 4 h, 64Cu label): 0.55 %ID/g
CC(C)[C@H](NC(=O)[C@@H]1CCCN1C(=O)[C@H](CCCNC(=N)N)NC(=O)[C@H](CS)NC(=O)[C@H](Cc1c[nH]c2ccccc12)NC(=O)[C@H](CCCNC(=N)N)NC(=O)[C@@H](Cc1ccccc1)NC(=O)[C@H](Cc1c[nH]cn1)NC(=O)[C@H](CCC(=O)O)NC(=O)[C@H](CS)NC(=O)[C@H](CS)NC(=O)[C@@H]1CC(=O)N[C@@H](CCCNC(=N)N)C(=O)NCC(=O)N[C@@H](CC(=O)O)C(=O)N[C@H](Cc2ccc(O)cc2)C(=O)N1)C(N)=O [technetium-99m labelled]  tissue uptake (C57 mouse, female, B16/F1 melanoma, liver; intravenous, 0.037 MBq, 4 h): 1.55 ± 0.25 %ID/g
CCCC[C@H](NC(=O)CNC(=O)CNC(=O)CN1CCN(CC(=O)O)CCN(CC(=O)O)CCN(CC(=O)O)CC1)C(=O)N[C@H]1CC(=O)NCCCC[C@@H](C(N)=O)NC(=O)[C@H](Cc2c[nH]c3ccccc23)NC(=O)[C@H](CCCNC(=N)N)NC(=O)[C@@H](Cc2ccccc2)NC(=O)[C@H](Cc2c[nH]cn2)NC1=O [gallium-67 labelled]  tissue uptake (female C57 mice, B16/F1 melanoma, blood; intravenous, 0.037 MBq, 4 h): 0.53 ± 0.25 %ID/g
CC(C)[C@H](NC(=O)[C@@H]1CCCN1C(=O)[C@H](CCCNC(=N)N)NC(=O)[C@H](CS)NC(=O)[C@H](Cc1c[nH]c2ccccc12)NC(=O)[C@H](CCCNC(=N)N)NC(=O)[C@@H](Cc1ccccc1)NC(=O)[C@H](Cc1c[nH]cn1)NC(=O)[C@H](CCC(=O)O)NC(=O)[C@H](CS)NC(=O)[C@H](CS)NC(=O)CNC(=O)[C@@H]1CC(=O)N[C@@H](CCCNC(=N)N)C(=O)NCC(=O)N[C@@H](CC(=O)O)C(=O)N[C@H](Cc2ccc(O)cc2)C(=O)N1)C(N)=O [technetium-99m labelled]  tissue uptake (C57 mouse, female, B16/F1 melanoma, muscle; intravenous, 0.037 MBq, 24 h): 0.3 ± 0.08 %ID/g
CN(C)c1ccc(-c2nc3ccc(OCCCCCN4CCN5CCN(CC4)CC(=O)[O][Al]([18F])[O]C(=O)C5)cc3s2)cc1  tissue uptake (ICR mouse, kidney; intravenous, 60 min): 3.83 ± 0.89 %ID/g
